{"data": "Published values from different studies", "target": "Aurora kinase A (AURKA, Homo sapiens, UniProt O14965)", "note": "Several values in a cell are separate wells, animals, samples, runs or records."}
{"SMILES": "C=C1CCCCCCCCCC(CO)C1=O (stereo not shown)", "effect on": "cell-free assay", "concentration": "10 µM", "endpoint": "remaining signal", "value": "55%"}
{"SMILES": "CN1C[C@@H](c2c[nH]c3cc(Br)ccc23)NC[C@@H]1c1c[nH]c2cc(Br)ccc12", "effect on": "enzyme activity", "action": "inhibitor", "concentration": "10 µM", "endpoint": "remaining activity", "value": "93%"}
{"SMILES": "CN1CC[C@@H](COc2cnc(C#N)cc2-c2ccn3nc(NC(=O)C4CC4)cc3c2)C1", "effect on": "enzyme activity", "action": "inhibitor", "concentration": "1 µM", "endpoint": "inhibition", "value": "19%"}
{"SMILES": "CN1CCN(Cc2ccc(NC(=O)c3cccc(C#Cc4cnc(N)c5ncccc45)c3)cc2C(F)(F)F)CC1", "effect on": "cell-free assay", "method": "competition with immobilised ligand", "concentration": "50 nM", "endpoint": "remaining binding", "value": "82%"}
{"SMILES": "CN1CCN(Cc2ccc(-c3ccc(CO[C@H]4CCC[C@@H]4NC(=O)c4cc(-c5cnn(C)c5)cnc4N)cc3)cc2)CC1", "effect on": "enzyme activity", "action": "inhibitor", "concentration": "0.1 µM", "endpoint": "inhibition", "value": "5%"}
{"SMILES": "Cc1cccc(O[C@H]2CCC[C@@H](C(C)CNCc3ccncc3)C2)c1 (relative stereo)", "effect on": "enzyme activity", "action": "inhibitor", "concentration": "10 µM", "endpoint": "inhibition", "value": "-3%"}
{"SMILES": "Nc1ncc2c(n1)-c1c([nH]c3ccc(C4=CCOCC4)cc13)CCC2", "effect on": "binding", "method": "competition with immobilised ligand", "concentration": "1 µM", "endpoint": "remaining binding", "value": "95%"}
{"SMILES": "COc1c(OCCCN2CCOCC2)ccc2c1N=C(NC(=O)c1cnc(N)nc1)N1CCN=C21", "effect on": "kinase activity", "action": "inhibitor", "concentration": "1 µM", "relative to": "untreated control", "endpoint": "remaining activity", "value": "111%"}
{"SMILES": "NC(=O)[C@@H](O)C[C@H]1CCc2sc3ncnc(O[C@H]4CC[C@H](N5CCOCC5)CC4)c3c21", "effect on": "enzyme activity", "action": "inhibitor", "concentration": "10 µM", "endpoint": "inhibition", "value": "16%"}
{"SMILES": "COc1cc(Nc2nc(C)cc(-c3cnn4nc(OC)ccc34)n2)cc(C(F)(F)F)c1", "action": "inhibitor", "concentration": "1 µM", "relative to": "control", "endpoint": "remaining activity", "value": "93%"}
{"SMILES": "COc1ccc(C(=O)/C=C/c2ccccc2-c2c[nH]c3ccc(C#N)cc23)c(O)c1", "effect on": "enzyme activity", "action": "inhibitor", "concentration": "20 µM", "endpoint": "inhibition", "value": "12%"}
{"SMILES": "COc1c(Cl)cccc1Nc1c(-c2ccncc2C#C[C@@]2(C)CCCN2C(=O)/C=C/CN(C)C)[nH]c2c1C(=O)NCC2", "effect on": "cell-free assay", "method": "competition with immobilised ligand", "concentration": "3 µM", "endpoint": "remaining binding", "value": "89%"}
{"SMILES": "C=CC(=O)Nc1cccc(-c2cnc3[nH]cc(C(=O)NC(C)(C)C)c3n2)c1", "effect on": "kinase activity", "concentration": "0.1 µM", "endpoint": "inhibition", "value": "35% and 33%"}
